Results pooled from the literature.
Numbered parts are unrelated; each lists some results of a single study. Changes are numbered by the printed parent chain.

Block 1 — method: protein binding microarray; form: double-stranded DNA, one strand shown; sample: in vitro; concentration: not given; relative to: not given; reading: higher = stronger binding
Target: Histone acetyltransferase KAT6A, both winged helices, GST fusion (KAT6A, Homo sapiens, UniProt Q92794, residues 1-181)
Notes: 8-mer, flanks averaged, mean of 2 arrays, mostly near background
Residues (chain): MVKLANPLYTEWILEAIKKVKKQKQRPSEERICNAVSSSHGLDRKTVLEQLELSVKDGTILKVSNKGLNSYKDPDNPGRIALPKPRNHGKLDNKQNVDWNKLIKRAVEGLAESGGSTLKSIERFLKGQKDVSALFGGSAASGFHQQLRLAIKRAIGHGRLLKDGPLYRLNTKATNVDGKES
Sequence | E-score
GACCCATA | -0.126
CTATGTTC | -0.0425
CCCTTGCG | 0.0223
AGATCTTA | -0.0558
CGGGCTTA | 0.145
GTAGACAC | -0.00902
CTACGATC | -0.051
TCGCAGCA | -0.00163
ATTATGTC | 0.0215
AGAAACTC | -0.158
CTTGAACC | -0.019
AACTTAGT | 0.0194
CAACCGTC | 0.0975
GCGAGTCA | 0.094
AACAATCG | -0.0368
CGCCTCGA | 0.151
CGGCAGTC | 0.199
CGTAGACG | 0.136
GTTATAGA | -0.0787

Block 2 — target: CEBPE, bZIP domain (human); method: DHFR protein complementation; sample: yeast; relative to: wild-type JUN-FOS pair; reading: higher = stronger binding
Notes: single substitutions, most at no-binding floor
Starting sequence: JUN, bZIP domain (human); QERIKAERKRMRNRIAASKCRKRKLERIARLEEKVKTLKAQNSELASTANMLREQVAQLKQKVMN; partner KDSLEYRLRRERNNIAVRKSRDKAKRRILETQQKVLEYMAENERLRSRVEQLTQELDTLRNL
Change | binding fitness [natural log]
A49L | -0.701
R53Y | -1.15
S43R | -0.972
L45W | -1.49
T48Y | -1.15
A29C | -1.25
E44R | -1.19
V56N | -1.51
A29Q | -1.18
A29K | -1.08
E32R | -1.22
M51I | -1.15
E44L | -1.31
N42E | -1.51
L31I | -1.41
E33C | -1.32
L31K | -1.47
E32F | -1.23
Q41E | -0.953
S47C | -1.17
A40R | -1.09
A40K | -1.06
L38W | -1.53
A57T | -1.15

Block 3 — method: RNA Bind-n-Seq; form: RNA; sample: in vitro; concentration: 365 nM; relative to: no-protein control; reading: higher = stronger binding
Target: RNA binding protein fox-1 homolog 2, RRM domain, GST-SBP tag (RBFOX2, Homo sapiens, UniProt O43251-10, residues 100-194)
Notes: natural RNA segment, single round, ends assumed
Shared flanks, not repeated: GGGAGUUCUACAGUCCGACGAUC … UGGAAUUCUCGGGUGCCAA
Residues (chain): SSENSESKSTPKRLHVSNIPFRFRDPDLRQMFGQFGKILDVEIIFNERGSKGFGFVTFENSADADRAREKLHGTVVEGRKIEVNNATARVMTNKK
Sequence | RBNS enrichment (R)
UCUGCAGGCCACACCAGUGGCCACAGGGGCCAUUUUGUCUUGUUGAUGCUGAAACCAUGCUGGACUGCCCCAGGCUAAGGCAGGACUGUCUGUGCAAGGCACUACAGCUA | 0.294
CAACUUUGUGAUAUGGUCAAGCUCCCGUUUAAGAAAUGGGAGUCUGUUGUUGCAGAUCAGUAAUUGUGCCUAAAAGAGACAGAAGUGAAAAAGAGACAAGCUCUGAGGGC | 0.45
UGGUGUAAAAGGGUCCCUGGUUUCCCUAUCAGCUAUAAUUUUUAUAUUUAGAAACUCAAAAUCAUGUCCUCUUCCACCGGCAGCAAUAUAGUGGAGAAACCAGAAAGAAA | 0.486
GGUAUUACCAGUAAAUUGGUUGUAUAUACAAUAAAAUUGCACCCUUUUUUUAAACAAAACAAACUAAGCAAUAGUUUGGGCAGUUCUAGUUGUUUUUAGUGAGCAUGUUG | 7.98
CAGCAAACAGCUGAAAGAGGAGGACCCCUGCCUUCCUCUGAGGACAGGCUCUAGAGAGAGGGAGAAACAAGUGGACCUCGUCCCAUCUUCACUCUUCACUUGAGUUGGCU | 0.253
GUAGUGAUUAGCAUUUAGAUAAUGUAACAGGAUUUUAGAGAGCACUUUGAAAGAUAACAUUUUAUUAUGAUGGUGCUAGGUAAAAAAUUGUAAAGACUGGGAUGGUUGUG | 0.272
UUGUUGAAUUUUGUCAAAGGCUUUUUCUGCAUCUAUUGAGAUAAUCAUGUGUUUUUUGUCUUUGGCUCUGUUUAUAUGCUGGAUUACAUUCAUUGAUUUGCGUAUAUUGA | 0.743
AUGGUUCUGAUGAUGAUUAUCCAACAAACAUCUGGCCCUCUCUACAUCUCUUCCCUCCAUCUCCUUGUACCCUCUGGCUUACUGUCCUCUCUCUGGCGCACUUUCCUGAA | 0.762
UCCACCCUGAUCUGGCCCCUGUUAGCCCAUGAGCCCUCUUUAUGUACCCAUCCUCCCUUUCUGAACCUUCCCUCAGGGUGGGGCUGGAUUAUGGAGGAAGGAAUGGAUCU | 0.268
AGGACGGGAGCUUCCUUGAAAAAUGUAACCUGGACAUCGUUGUCAAUCCCACAACCCCUGACUCUCUGUGCUUCUAGUCCUGACGGUGUAUUAAACGUCCAUUUAACUUG | 0.922
AAUUUAAAUGAUUACAGAGUGCUCCUGCCCAAGGAUCUCAUAGCCUGGAGUGAGGGUCAGAACUGAUUUGUUCUGUCUAUGUUUCAGCACUGGUGUGUGUUCUCUAUAAG | 0.503
UUUUUAUAUUUUUCAAUGCAUUUAAUUAUCUUUUUUAUAAUUCUUUGUACUAACUCAGCAUGUAACAACCAAUUUACAUGGAAAUAAAUCGAAAUAUGAUAACUAUUAUG | 0.731

Block 4 — target: CEP164, C-terminal peptide (human); method: DHFR complementation, deep sequencing; sample: yeast; relative to: wild type; reading: higher = weaker binding
Notes: single substitutions, model-inferred values
Starting sequence: PDZK1, PDZ domain 2 (human); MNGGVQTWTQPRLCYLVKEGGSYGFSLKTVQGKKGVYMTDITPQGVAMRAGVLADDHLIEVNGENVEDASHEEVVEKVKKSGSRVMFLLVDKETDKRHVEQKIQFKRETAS; partner HNRVKVYRF
Change | binding free energy change [kcal/mol]
T109D | -0.132
G51T | 1.43
V61L | 0.791
E60N | 0.189
V30M | 0.136
N2D | -0.0488
G45T | 1.4
A110K | -0.112
P43K | 0.377
G3R | -0.0817
E100K | -0.0921
K18M | 0.372
Q10R | -0.119
Q101Y | -0.0488
H98F | -0.0908
T7N | -0.115
D68A | 0.0887
G4T | 0.0351
F105I | -0.129
W8N | -0.0352
E64M | 0.118
G4L | 0.0829
C14H | 0.316
G82V | 0.684
Y23K | 1.45

Block 5 — target: CCNE1, cyclin fold, Cln2 fusion (human); method: yeast growth competition, sequencing; sample: yeast; notes: weak parent motif; relative to: not given; reading: higher = stronger binding
Starting sequence: AKAP12 docking peptide (human); GSPLKKLFTSTGL
Change | normalised enrichment score
K5A L7A | 0.139
G1A | 1.03
L4A | 0.265
K5R | 0.677
S2A | 1.07
L13A | 0.535
F8L | 0.315
T9A | 0.298
T11A | -0.685
F8A | 0.108

Block 6 — method: RNA Bind-n-Seq; form: RNA; sample: in vitro; concentration: 200 nM; notes: whole 134-nt RNA, ends assumed; together with: 150 mM LiCl; relative to: input library; reading: higher = stronger binding; library: 7-deaza-guanosine replaces G
Target: Fragile X messenger ribonucleoprotein 1, C-terminal low-complexity region (Fmr1, Mus musculus, UniProt P35922)
Shared flanks, not repeated: GGGAGUUCUACAGUCCGACGAUC … UGGAAUUCUCGGGUGUCAAGG
Sequence | log2 enrichment
CAAGUCCUGUGCUACACAUCGUAUGUACCGAAUCGGGAGGGUUUGGGAAAAAGGGAAAGUAUUAUGUUACGCCGUUCGGAUCUGCACUUC | -0.413
CCUCAAGUCCUGUGCUACACAUCGUAUGUACCGAAUCGGUGGUUUUUGGUGGAAAGUAUUAUGUUACGCCGUUCGGAUCUGCACUUCCAG | 0.217
GUCCUGUGCUACACAUCGUAUGUACCGAAUCGGGUUUUUUUGGGUUUUUGGGUUUGGGAAAGUAUUAUGUUACGCCGUUCGGAUCUGCAC | -0.514
CUCAAGUCCUGUGCUACACAUCGUAUGUACCGAAUCGGUUUUUGGAGGAAAGGAAAGUAUUAUGUUACGCCGUUCGGAUCUGCACUUCCA | -0.219
CACAGACAACACGCACCCACACAGACACAGAGGGAAGGGGUUGGGAUGGGGACAGGGUGCACAGCAGGGCGGGGUAGAACCCCAGCCCCU | -0.324
GCAGGAAGUAAAAACAAAUGGAAAUGCUUCGGAUAGUGGCAGGGGUGGGGGUUGCUAAGGAAAGGGUGGGAUGGGAGUGCGUAAAGAGUU | 1.65
GAAGGAAGUAAAAACAAAUGGAAAUGCUUCGGAUAGUGGCAGGGGUGGGGGUUGCUAAGGAAAGGGUGGGAUGGGAGUGGGUAAAGAGUU | 1.38
CUGUGCUACACAUCGUAUGUACCGAAUCGGGGUUUUUUUGGUUUUUUUGGGUUUUUUUGGGGAAAGUAUUAUGUUACGCCGUUCGGAUCU | 0.758
GCAGGAAGUAAAAACAAAUGGAAAUGCUUCGGAUAGUAAAAGGGGUGGGGGUUGCUAAGGAAAGGGUGGGAUGGGAGUGGGUAAAGAGUU | 1.46
CCUGUGCUACACAUCGUAUGUACCGAAUCGGGGAAAAAAAGGAAAAAAAGGAAAAAAAGGGAAAGUAUUAUGUUACGCCGUUCGGAUCUG | -0.1
GCAGGAAGUAAAAACAAAUGGAAAUGCUUCGGAUAGUGGCAGGGGUGGGGGUUGCUAAGGAAAGGGUGGGAUGGGAGCGGGUAAAGAGUU | 1.47

For quick reference, copied from above (block 2):
Change | binding fitness [natural log]
L45W | -1.49
T48Y | -1.15
A29C | -1.25
E44R | -1.19
V56N | -1.51
A29Q | -1.18
A29K | -1.08
E32R | -1.22
M51I | -1.15
E44L | -1.31
N42E | -1.51
L31I | -1.41
E33C | -1.32
